Measured values of several laboratories.
Every numbered part comes from another study and shows a few of its results, in no order.

Set 1 — technique: aptamer microarray, sandwich; molecule type: DNA with 2'F-ANA; medium: in vitro; tested at: 200 nM; with: Cy3 exosite-II aptamer, 400 nM; reading: higher = stronger binding; quantity: mean fluorescence intensity; sequence: GGTTGGTGTGGTTGG
Target: Prothrombin, mature alpha-thrombin (F2, Homo sapiens, UniProt P00734)
Setting: whole 15-mer aptamer, many near background
2'F-ANA at 1 3 4 6 7 8 11 12 13: 242 a.u.
2'F-ANA at 1 3 7 8 13: 325 a.u.
2'F-ANA at 1 2 3 5 6 8 12: 165 a.u.
2'F-ANA at 1 2 5 8 9 11 13 15: 52.9 a.u.
2'F-ANA at 2 3 4 6 9 10 11: 190 a.u.
2'F-ANA at 3 8 9 10 15: 572 a.u.
2'F-ANA at 1 3 6 8 9 10 13 14: 59.4 a.u.
2'F-ANA at 2 3 6 7 11 12 15: 834 a.u.
2'F-ANA at 2 3 4 8 10 15: 258 a.u.
2'F-ANA at 1 2 3 9 10 11 12 13: 78.9 a.u.
2'F-ANA at 1 2 3 5 9 10 13 14 15: 48 a.u.
2'F-ANA at 2 4 5 9 12 14: 43.4 a.u.
2'F-ANA at 1 2 3 5 6 7 11 13 14: 51.4 a.u.
2'F-ANA at 3 5 7 8 13 14 15: 80.9 a.u.
2'F-ANA at 2 3 4 5 7 8 10 11 12 15: 53.8 a.u.
2'F-ANA at 8 11 14: 199 a.u.
2'F-ANA at 1 3 4 8 9 10 11 12: 78.4 a.u.
2'F-ANA at 1 3 4 7 11 12 13 14 15: 77.9 a.u.
2'F-ANA at 3 4 5 6 7 9 11 12 13 14 15: 52.4 a.u.
2'F-ANA at 2 4 5 7 8 12 13 14: 46.7 a.u.
2'F-ANA at 1 2 3 4 6 7 9 13 14 15: 57.3 a.u.
2'F-ANA at 1 3 4 5 6 7 8 9 12 13 14: 85.9 a.u.
2'F-ANA at 2 7 8 10 11: 132 a.u.
2'F-ANA at 8 9 13 14: 198 a.u.

Set 2 — target: UBE2C UBC core domain (UniProt O00762); technique: yeast two-hybrid; medium: yeast; setting: mostly zero background; relative to: not given; reading: higher = stronger interaction; quantity: lacZ reporter activity
B1: MSL2 RING domain (UniProt Q9HCI7); chain LLPYFRQSLSCCVCGHLLQDPIAPTNSTCQHYVCKTCKGKKMMMKPSCSWCKDYEQFEENKQ
B2: TRIM10 RING domain (UniProt Q9UDY6); chain SVTSLADEVNCPICQGTLREPVTIDCGHNFCRACLTRYCEIPGPDLEESPTCPLCKEPFRPGSFRP
B3: RFPL2 RING domain (UniProt O75678); chain MAALFQEASSCPVCSDYLEKPMSLECGCAVCLKCINSLQKEPHGEDLLCCCSSMVSRKNKIRR
B4: RNF32 RING domain (UniProt Q9H0A6); chain SLLQGDSVQPCPICKEEFELRPQVLLSCSHVFHKACLQAFEKFTNKKTCPLCRKNQYQTRVIH
B5: TRIM15 RING domain (UniProt Q9C019); chain SLKVVHELPACTLCAGPLEDAVTIPCGHTFCRLCLPALSQMGAQSSGKILLCPLCQEEEQAETPMA
B6: TRIM35 RING domain (UniProt Q9UPQ4); chain PSRSFKEELLCAVCYDPFRDAVTLRCGHNFCRGCVSRCWEVQVSPTCPVCKDRASPADLRT
B7: RNF149 RING domain (UniProt Q8NC42); chain EKGIDVDAENCAVCIENFKVKDIIRILPCKHIFHRICIDPWLLDHRTCPMCKLDVIKALGYW
B8: RNF175 RING domain (UniProt Q8N4F7); chain LPTRSLSDNICAVCGQKIIVELDEEGLIENTYQLSCNHVFHEFCIRGWCIVGKKQTCPYCKEKVDLKRMIS
B9: TRIM38 RING domain (UniProt O00635); chain STKKMMEEATCSICLSLMTNPVSINCGHSYCHLCITDFFKNPSQKQLRQETFCCPQCRAPFHMDSLRP
B10: PEX2 RING domain (UniProt P28328); chain DNTLATSGKECALCGEWPTMPHTIGCEHIFCYFCAKSSFLFDVYFTCPKCGTEVHSLQPLK
B11: TRIM55 RING domain (UniProt Q9BYV6); chain TMDNLEKQLICPICLEMFTKPVVILPCQHNLCRKCASDIFQASNPYLPTRGGTTMASGGRFRCPSCRHEVVLDRHG
B12: ANKIB1 RING domain (UniProt Q9P2G1); chain LSPGDLDTSLCDICMCSISVFEDPVDMPCGHDFCRGCWESFLNLKIQEGEAHNIFCPAYDCFQLVPVDIIE
B13: UBE4A RING domain (UniProt Q14139); chain LQQQEEETYADACDEFLDPIMSTLMCDPVVLPSSRVTVDRSTIARHLLSDQTDPFNRSPLTMDQIRPNTELKEKIQRWLAERKQQKEQLE
Residues (chain): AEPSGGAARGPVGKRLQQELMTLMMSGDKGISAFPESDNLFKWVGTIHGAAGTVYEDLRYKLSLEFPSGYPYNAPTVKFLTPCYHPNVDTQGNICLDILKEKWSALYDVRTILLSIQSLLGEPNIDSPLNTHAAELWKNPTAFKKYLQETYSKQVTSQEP
FLKKLEQSFMCVCCQELVYQPVTTECFHNVCKDCLQRSFKAQVFSCPACRHDLGQNYIMI (UHRF2 RING domain (UniProt Q96PU4)): 0
B1 (MSL2 RING domain): 0
B2 (TRIM10 RING domain): 0
B3 (RFPL2 RING domain): 0
B4 (RNF32 RING domain): 0
B5 (TRIM15 RING domain): 0
B6 (TRIM35 RING domain): 0
LKQVSIRENCCSLCCDEVADTQLKPCGHSDLCMDCALQLETCPLCRKEIVSRIRQI (RSPRY1 RING domain (UniProt Q96DX4)): 0
B7 (RNF149 RING domain): 0
B8 (RNF175 RING domain): 0
B9 (TRIM38 RING domain): 0
B10 (PEX2 RING domain): 0
B11 (TRIM55 RING domain): 0
B12 (ANKIB1 RING domain): 0
B13 (UBE4A RING domain): 0

Set 3 — technique: RNA Bind-n-Seq; molecule type: RNA; medium: in vitro; tested at: 200 nM; setting: whole 134-nt RNA, ends assumed; with: 150 mM KCl; relative to: input library; reading: higher = stronger binding; quantity: log2 enrichment
Target: Fragile X messenger ribonucleoprotein 1, C-terminal low-complexity region (Fmr1, Mus musculus, UniProt P35922)
All sequences stand within: GGGAGUUCUACAGUCCGACGAUC … UGGAAUUCUCGGGUGUCAAGG
CAAGUCCUGUGCUACACAUCGUAUGUACCGAAUCGGGUUUUUUUGGGAGGGUGGGAAAGUAUUAUGUUACGCCGUUCGGAUCUGCACUUC: 1.05
CCUGUGCUACACAUCGUAUGUACCGAAUCGGGAAAAAAAGGGAAAAAGGGUUUUUUUGGGAAAGUAUUAUGUUACGCCGUUCGGAUCUGC: -0.765
UGGGAGGUGGAUUUUGUUUAUUUUUUUAGCUCAUUUCCAGGGGUGGGAAUUUUUUUUUAAUAUGUGGCAUGAAUAAAGUUGUUUUUGAAA: 0.403
CAAGUCCUGUGCUACACAUCGUAUGUACCGAAUCGGGGUGGGGAGGGGAAAGGGGAAAGUAUUAUGUUACGCCGUUCGGAUCUGCACUUC: 1.2
CUCAAGUCCUGUGCUACACAUCGUAUGUACCGAAUCGGGGAAGGAAGGGAAGGAAAGUAUUAUGUUACGCCGUUCGGAUCUGCACUUCCA: 0.0228
CUGUGCUACACAUCGUAUGUACCGAAUCGGGGUUUUUUUGGGGAAAAAAAGGGGUUUGGGGAAAGUAUUAUGUUACGCCGUUCGGAUCUG: -0.528
CACAGACAACACGCACCCACACAGACACAGAGGGAAGGGGUUGGGAUGGGGACAGGGUGCACAGCAGGGCGGGGUAGGACCCCAACCCCU: 1.16
CUCAAGUCCUGUGCUACACAUCGUAUGUACCGAAUCGGUUGGGGUUGGGUUGGGAAAGUAUUAUGUUACGCCGUUCGGAUCUGCACUUCC: 1.19
CUCAAGUCCUGUGCUACACAUCGUAUGUACCGAAUCGGAAGGAAGGGAAGGGGAAAGUAUUAUGUUACGCCGUUCGGAUCUGCACUUCCA: -0.0249
AAGUCCUGUGCUACACAUCGUAUGUACCGAAUCGGUUUUUUUGGAAAAAGGUUUGGAAAGUAUUAUGUUACGCCGUUCGGAUCUGCACUU: -1.38
GUCCUGUGCUACACAUCGUAUGUACCGAAUCGGAAAAAGGGGAAAAAGGGAAAAAGGGGAAAGUAUUAUGUUACGCCGUUCGGAUCUGCA: 0.0599
AGUCCUGUGCUACACAUCGUAUGUACCGAAUCGGGAAAAAGGGAAAAAGGAAAAAGGAAAGUAUUAUGUUACGCCGUUCGGAUCUGCACU: -0.669

Set 4 — technique: universal PBM; molecule type: double-stranded DNA, one strand shown; medium: in vitro; tested at: not given; reading: higher = stronger binding; quantity: E-score
Target: Sal-like protein 4, full length isoform B (SALL4, Homo sapiens, UniProt Q9UJQ4-2, residues 1-616)
Setting: 8-mer, flanks averaged, mean of replicates
ATGAAAAC: 0.327
CGTTGTGC: -0.00773
AACCTGCG: -0.175
CCCCGTAG: -0.313
GGAAGGTA: 0.0604
CTGGAGTA: -0.025
ACATGGGT: 0.0818
GTCACTAA: 0.108
GACGGATA: -0.0913
CTGCACCC: -0.274
ACAATACA: 0.198
GCTTGCTA: -0.166
AAGCTCGG: -0.157
CCCGACTC: -0.234
CTCCTGCC: -0.138
AACCTTTA: 0.182
CTTCGAGA: -0.0031
ATCATCAC: 0.0653

Set 5 — technique: protein binding microarray; molecule type: double-stranded DNA, one strand shown; medium: in vitro; tested at: not given; relative to: not given; reading: higher = stronger binding; quantity: E-score
Target: Histone acetyltransferase KAT6A, winged helix 2, GST fusion (KAT6A, Homo sapiens, UniProt Q92794, residues 85-181)
Setting: 8-mer, flanks averaged, mean of 2 arrays, mostly near background
Residues (chain): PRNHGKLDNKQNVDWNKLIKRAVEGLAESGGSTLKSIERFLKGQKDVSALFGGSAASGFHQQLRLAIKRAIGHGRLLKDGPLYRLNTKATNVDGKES
ACGTCATA: -0.136
CCAGCGAA: 0.0734
TCGGTCAA: -0.145
CCTGAGAA: -0.00496
GGCTGCAC: 0.14
CTTGCTGA: 0.0603
AGCCGCGC: 0.139
ATAATCCG: -0.0907
CTGTTGTC: 0.0651
GCCGTACA: -0.0593
ACGAGACC: -0.159
ATGAAGTA: -0.011
TCGCCACA: -0.0609
CACCGCGG: 0.211
GCAAAATA: 0.124
AGTCAGTC: -0.152
ATATGGTA: -0.101
CACTTGTA: -0.197
GGGCAGGA: 0.152

Repeated from above (set 3):
CAAGUCCUGUGCUACACAUCGUAUGUACCGAAUCGGGUUUUUUUGGGAGGGUGGGAAAGUAUUAUGUUACGCCGUUCGGAUCUGCACUUC: 1.05
CCUGUGCUACACAUCGUAUGUACCGAAUCGGGAAAAAAAGGGAAAAAGGGUUUUUUUGGGAAAGUAUUAUGUUACGCCGUUCGGAUCUGC: -0.765
UGGGAGGUGGAUUUUGUUUAUUUUUUUAGCUCAUUUCCAGGGGUGGGAAUUUUUUUUUAAUAUGUGGCAUGAAUAAAGUUGUUUUUGAAA: 0.403
CAAGUCCUGUGCUACACAUCGUAUGUACCGAAUCGGGGUGGGGAGGGGAAAGGGGAAAGUAUUAUGUUACGCCGUUCGGAUCUGCACUUC: 1.2
CUCAAGUCCUGUGCUACACAUCGUAUGUACCGAAUCGGGGAAGGAAGGGAAGGAAAGUAUUAUGUUACGCCGUUCGGAUCUGCACUUCCA: 0.0228
CUGUGCUACACAUCGUAUGUACCGAAUCGGGGUUUUUUUGGGGAAAAAAAGGGGUUUGGGGAAAGUAUUAUGUUACGCCGUUCGGAUCUG: -0.528
CACAGACAACACGCACCCACACAGACACAGAGGGAAGGGGUUGGGAUGGGGACAGGGUGCACAGCAGGGCGGGGUAGGACCCCAACCCCU: 1.16
CUCAAGUCCUGUGCUACACAUCGUAUGUACCGAAUCGGUUGGGGUUGGGUUGGGAAAGUAUUAUGUUACGCCGUUCGGAUCUGCACUUCC: 1.19
CUCAAGUCCUGUGCUACACAUCGUAUGUACCGAAUCGGAAGGAAGGGAAGGGGAAAGUAUUAUGUUACGCCGUUCGGAUCUGCACUUCCA: -0.0249
AAGUCCUGUGCUACACAUCGUAUGUACCGAAUCGGUUUUUUUGGAAAAAGGUUUGGAAAGUAUUAUGUUACGCCGUUCGGAUCUGCACUU: -1.38
GUCCUGUGCUACACAUCGUAUGUACCGAAUCGGAAAAAGGGGAAAAAGGGAAAAAGGGGAAAGUAUUAUGUUACGCCGUUCGGAUCUGCA: 0.0599
